Measured values of several laboratories.
Each numbered part is a random draw from the data of one study; scales do not carry over between parts. Substitutions count along the parent as printed.

Series 1 — effect on: binding; method: phage display NGS; molecule type: peptide; tested at: concentration not given; reference: input library; measurement: enrichment fold change
Target: UDP-N-acetylglucosamine--peptide N-acetylglucosaminyltransferase 110 kDa subunit (OGT, Homo sapiens, UniProt O15294)
Residues (O15294 1-1046): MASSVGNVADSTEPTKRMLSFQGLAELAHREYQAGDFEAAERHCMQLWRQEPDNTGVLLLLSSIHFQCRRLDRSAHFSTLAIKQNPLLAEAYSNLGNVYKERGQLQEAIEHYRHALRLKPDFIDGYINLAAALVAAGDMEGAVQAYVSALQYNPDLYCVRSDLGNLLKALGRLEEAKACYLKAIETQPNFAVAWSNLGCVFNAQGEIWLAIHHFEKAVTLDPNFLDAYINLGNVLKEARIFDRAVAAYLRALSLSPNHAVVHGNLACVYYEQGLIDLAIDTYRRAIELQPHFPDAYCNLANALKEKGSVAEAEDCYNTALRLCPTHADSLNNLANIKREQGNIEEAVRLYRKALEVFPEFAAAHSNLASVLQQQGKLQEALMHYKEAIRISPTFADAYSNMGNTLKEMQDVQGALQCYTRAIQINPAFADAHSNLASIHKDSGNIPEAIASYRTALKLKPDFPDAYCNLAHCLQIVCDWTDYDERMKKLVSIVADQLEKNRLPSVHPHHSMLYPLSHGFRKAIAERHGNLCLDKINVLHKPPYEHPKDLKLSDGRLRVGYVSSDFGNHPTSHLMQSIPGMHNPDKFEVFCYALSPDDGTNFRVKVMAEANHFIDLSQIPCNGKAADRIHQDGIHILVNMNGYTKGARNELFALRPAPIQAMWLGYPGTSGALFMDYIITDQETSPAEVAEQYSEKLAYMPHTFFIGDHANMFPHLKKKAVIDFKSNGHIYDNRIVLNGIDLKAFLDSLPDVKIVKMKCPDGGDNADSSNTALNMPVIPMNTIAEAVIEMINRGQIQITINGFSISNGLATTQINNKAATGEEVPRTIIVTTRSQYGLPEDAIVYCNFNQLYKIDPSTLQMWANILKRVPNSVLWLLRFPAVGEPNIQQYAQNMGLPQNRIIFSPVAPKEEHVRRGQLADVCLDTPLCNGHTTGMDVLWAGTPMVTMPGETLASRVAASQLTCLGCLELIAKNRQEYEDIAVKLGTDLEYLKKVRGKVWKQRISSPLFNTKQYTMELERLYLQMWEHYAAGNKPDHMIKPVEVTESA
ATWHPYHHGHEYIV: 8.89
YYHTPRHDQMHVYVR: 5.65
HGHRLRSESHTHVRQ: 2.38
HFDHYYNAHEDHVA: 3.54
FSFKPVYEIVLEQK: 1.86
HQQQHHEVSGHHLVR: 4.34
HLKHHYLAFTTHHPG: 8.01
RPLEQSHHHIFFSKR: 2.04
GRYSYDPQYTIDYKR: 2.71

Series 2 — target: CCNB3, cyclin fold, Cln2 fusion (human); method: yeast growth competition, sequencing; sample: yeast; notes: strong parent motif; reference: not given; reading: higher = stronger binding; measurement: normalised enrichment score
Starting sequence: viral docking peptide; TSVRRALFTGGSD; partner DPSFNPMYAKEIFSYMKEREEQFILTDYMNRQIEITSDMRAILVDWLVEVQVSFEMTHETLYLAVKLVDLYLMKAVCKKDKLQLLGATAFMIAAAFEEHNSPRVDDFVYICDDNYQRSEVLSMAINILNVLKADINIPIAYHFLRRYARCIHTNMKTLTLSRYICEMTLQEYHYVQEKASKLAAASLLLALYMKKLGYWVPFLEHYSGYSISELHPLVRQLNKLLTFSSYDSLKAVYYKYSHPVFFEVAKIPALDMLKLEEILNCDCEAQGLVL
TSVRRALFTGGRD [S12R]: 1.7
THVRRALFTGGSD [S2H]: 2.06
TDVRRALFTGGSD [S2D]: 1.53
TLVRRALFTGGSD [S2L]: 1.46
TSVRRANFTGGSD [L7N]: 0.205
TSVRRALFTKGSD [G10K]: 1.62
TSVRFALFTGGSD [R5F]: -0.0115
TSVRRALFTGHSD [G11H]: 1.66
TSVQRALFTGGSD [R4Q]: 0.156
TSVRRALFTGGTD [S12T]: 1.76
TSVRRALFTRGSD [G10R]: 1.5
TTVRRALFTGGSD [S2T]: 1.76
TSVRRALMTGGSD [F8M]: 0.0972
TSVRAALFTGGSD [R5A]: 0.487
TSVRRALFTGESD [G11E]: 2.32
TSVRRALFTGGCD [S12C]: 2.08
TSVRRALFTGGVD [S12V]: 1.97
TSVRRALFTGGWD [S12W]: 1.49
TSKRRALFTGGSD [V3K]: 0.325

Series 3 — Substitution: D95R; method: DHFR PCA, deep sequencing; sample: yeast; reference: wild-type fitted maximum; reading: higher = stronger binding; measurement: relative binding score
Target: ABI1, truncated, D143A, DHFR fusion (Arabidopsis thaliana)
Notes: methotrexate growth selection, single substitutions
Starting sequence: PYL1, truncated, DHFR fusion (Arabidopsis thaliana); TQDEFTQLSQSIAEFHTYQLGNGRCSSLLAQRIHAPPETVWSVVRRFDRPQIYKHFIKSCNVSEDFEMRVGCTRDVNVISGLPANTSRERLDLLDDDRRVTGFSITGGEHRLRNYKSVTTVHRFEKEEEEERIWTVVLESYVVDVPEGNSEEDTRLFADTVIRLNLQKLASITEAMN
with: (+)-ABA 0.032 µM: -1.21%
with: (+)-ABA 58 µM: 30.4%
with: (+)-ABA 17 µM: 9.51%
with: (+)-ABA 710 µM: 82.2%
with: (+)-ABA 0.11 µM: -3.45%
with: (+)-ABA 0.39 µM: -7.04%

Further values, each from its own experiment — method: cross-linking MS
AGPS (Homo sapiens, UniProt O00116)
cross-linked residues (GNPAT (Homo sapiens, UniProt O15228); cell fractions; with: DMTMM): E79 to K90

PGRMC1 (Homo sapiens, UniProt O00264)
interaction screen (DHCR24 (Homo sapiens, UniProt Q15392); hits only): cross-linked

PES1 (Homo sapiens, UniProt O00541)
cross-linked residues (BOP1 (Homo sapiens, UniProt Q14137); cell fractions; with: DMTMM): K121 to E287

PSMC2 (Homo sapiens, UniProt P35998)
interaction screen (PSMC6 (Homo sapiens, UniProt P62333); hits only): cross-linked

Some of these lines once more (series 3):
with: (+)-ABA 0.032 µM: -1.21%
with: (+)-ABA 58 µM: 30.4%
with: (+)-ABA 17 µM: 9.51%
with: (+)-ABA 710 µM: 82.2%
with: (+)-ABA 0.11 µM: -3.45%
with: (+)-ABA 0.39 µM: -7.04%
